{"sequences": {"note": "Protein sequences, listed by entry. Tags and fused reporters are not part of them.", "UniProt P11387, whole entry": "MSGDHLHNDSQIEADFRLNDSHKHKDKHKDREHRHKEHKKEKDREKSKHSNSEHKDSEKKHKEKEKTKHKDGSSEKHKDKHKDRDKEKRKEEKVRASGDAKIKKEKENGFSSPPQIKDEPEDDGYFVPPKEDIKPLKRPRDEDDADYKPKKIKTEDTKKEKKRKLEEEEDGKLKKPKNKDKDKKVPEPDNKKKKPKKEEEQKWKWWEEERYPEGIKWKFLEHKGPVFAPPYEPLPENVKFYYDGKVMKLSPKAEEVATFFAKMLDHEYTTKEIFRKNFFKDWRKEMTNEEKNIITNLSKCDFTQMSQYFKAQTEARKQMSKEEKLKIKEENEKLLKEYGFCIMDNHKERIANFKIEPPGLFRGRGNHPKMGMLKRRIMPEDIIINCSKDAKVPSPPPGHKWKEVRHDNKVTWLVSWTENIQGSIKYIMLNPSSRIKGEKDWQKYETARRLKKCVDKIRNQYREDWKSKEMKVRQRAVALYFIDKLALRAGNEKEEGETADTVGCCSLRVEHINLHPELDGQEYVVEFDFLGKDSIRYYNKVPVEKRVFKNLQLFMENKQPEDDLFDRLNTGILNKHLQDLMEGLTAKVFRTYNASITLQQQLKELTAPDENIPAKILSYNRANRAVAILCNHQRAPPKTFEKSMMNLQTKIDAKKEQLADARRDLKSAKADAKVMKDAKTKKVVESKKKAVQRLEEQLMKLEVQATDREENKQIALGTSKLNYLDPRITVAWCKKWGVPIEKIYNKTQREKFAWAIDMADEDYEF", "UniProt Q16539, whole entry": "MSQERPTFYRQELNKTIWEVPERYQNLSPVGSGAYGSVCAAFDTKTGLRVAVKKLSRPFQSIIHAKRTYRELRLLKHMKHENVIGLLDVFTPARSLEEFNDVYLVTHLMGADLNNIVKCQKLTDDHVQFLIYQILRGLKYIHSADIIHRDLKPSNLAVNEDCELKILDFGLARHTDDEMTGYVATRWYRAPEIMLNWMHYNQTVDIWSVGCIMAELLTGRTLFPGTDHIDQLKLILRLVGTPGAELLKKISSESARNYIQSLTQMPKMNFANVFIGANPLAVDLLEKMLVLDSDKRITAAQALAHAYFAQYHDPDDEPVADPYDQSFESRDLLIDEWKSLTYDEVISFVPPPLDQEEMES"}, "data": "Measurements collected from several papers", "note": "Each line is one published result; not all experiments were run side by side. “And” joins repeats or separate records; there may be more than shown. ± marks the error that the study gave."}
{"Compound": "O=C(NCc1ccco1)C1CN(c2cc(-c3cc(F)cc(F)c3)n[nH]c2=O)C1", "target or system": "A549, HCT116, HCT116 p53, U2OS", "test": "cytotoxicity, MTS", "quantity": "IC50", "result": "> 36000 nM"}
{"Compound": "CN1C(=O)CCc2cc(CNC(C)(C)[C@@H](O)c3ccccc3)ccc21", "test system": "male CD-1 mouse, brain", "conditions": "subcutaneous, 10 mg/kg", "quantity": "Cmax", "result": "2960 ng/g"}
{"Compound": "NS(=O)(=O)c1nnc(NC(=O)CC2C3CC4CC(C3)CC2C4)s1 (stereo not shown)", "test system": "n-octanol/PBS", "conditions": "pH 7.4", "quantity": "logD", "result": 2.35}
{"Compound": "CC/C=C\\C/C=C\\CCC/C=C/C=C/C=C\\CCCC(=O)O", "target or system": "DNA topoisomerase 1 (TOP1, Homo sapiens, UniProt P11387)", "test": "catalytic activity, inhibitor, gel", "conditions": "added: 2 units topo I, pBR322", "quantity": "IC50", "result": "500 ± 100 nM"}
{"Compound": "CCCCCCCCNCc1ccc(CNC(=O)c2csc3ncnc(OCc4ccc(N=[N+]=[N-])cc4)c23)cc1", "target or system": "human red blood cells", "conditions": "100 µM", "quantity": "hemolysis", "result": "~6%"}
{"Compound": "C=C(C)C(=O)Nc1ccc(-c2c(-c3ccc(Oc4nccc(C)n4)c(F)c3)c3c(N)ncnc3n2C)cc1", "target or system": "ESS-1", "test": "cell growth, CellTiter-Glo", "conditions": "120 h, unit not given", "scale": "reference: untreated growth rate, higher = stronger inhibition", "quantity": "area over GR curve", "result": 0.406}
{"Compound": "COc1ncnc2scc(C(=O)NCc3ccc(CNCc4ccccc4)cc3)c12", "target or system": "human red blood cells", "test": "hemolysis", "conditions": "1 h, 37 °C, estimated, weak activity", "quantity": "EC50", "result": "> 100000 nM"}
{"Compound": "C=C1C(=O)OC2CC(C)C3=CC(=O)C(C)(CC(OC(=O)/C(C)=C\\C)C12)O3 (stereo not shown)", "target or system": "HT-29", "test": "cytotoxicity", "quantity": "IC50", "result": "560 nM"}
{"Compound": "CCOC(=O)C1=C(C)N(c2cccc(C(F)(F)F)c2)C(=O)N(CC(=O)N(C)C)[C@@H]1c1ccc(C#N)cc1", "test system": "rat hepatocytes", "quantity": "Fmax", "result": "13%"}
{"Compound": "CCOC(=O)c1c(-c2ccc(Cl)cc2Cl)n(-c2nc(-c3ccc(Cl)cc3)c3c(NC(=O)c4ccccc4)nnc-3[nH]2)[nH]c1=O", "target or system": "TK-10", "test": "SRB", "conditions": "10 µM", "quantity": "cell growth", "result": "64%"}
{"Compound": "CC(C)C[C@H](NC(=O)[C@H](C)NC(=O)[C@H](CCCNC(=N)N)NC(=O)[C@H](CCCNC(=N)N)NC(=O)[C@H](CCCNC(=N)N)NC(=O)[C@H](C)NC(=O)[C@H](CC(C)C)NC(=O)[C@H](CCCNC(=N)N)NC(=O)[C@H](CO)NC(=O)[C@H](CCCCN)NC(=O)[C@H](CO)NC(=O)Cn1cc(COC(=O)[C@]2(C)C=C(C(=O)OC(C)(C)C)C(=O)CC2)nn1)C(=O)O", "target or system": "MAPK14 (Homo sapiens, UniProt Q16539)", "test": "enzyme activity, inhibitor, D-SENSOR kinase", "conditions": "7.407 µM, unit not given", "scale": "reference: untreated", "quantity": "remaining activity", "result": "0.0277 and 0.0275 and 0.0371"}
{"Compound": "Cc1ccc(S(=O)(=O)Nc2ccccc2C(=O)Nc2nc(-c3ccccc3)cs2)cc1", "test system": "rat liver microsomes", "conditions": "37 °C, added: NADPH", "quantity": "half-life", "result": "2.5 min"}
{"Compound": "N#Cc1c(-c2ccc(Cl)cc2Cl)n(-c2nc(-c3ccc(Cl)cc3)c3c(NC(=O)c4ccccc4)nnc-3[nH]2)[nH]c1=O", "target or system": "TK-10", "test": "SRB", "conditions": "10 µM", "quantity": "cell growth", "result": "56.2%"}
{"Compound": "NS(=O)(=O)c1nnc(NC(=O)C2C3CC4CC(C3)CC2C4)s1 (stereo not shown)", "test system": "mouse liver microsomes", "quantity": "half-life", "result": "> 120 min"}
{"Compound": "CCCOc1ncnc2scc(C(=O)NCc3ccc(CN4CCOCC4)cc3)c12", "target or system": "human red blood cells", "test": "hemolysis", "conditions": "1 h, 37 °C, estimated, weak activity", "quantity": "EC50", "result": "> 100000 nM"}
{"Compound": "[2H]C(C)(CO[C@H]1CC[C@H](CN2CCN(c3ccc4c(c3F)n(C)c(=O)n4C3CCC(=O)NC3=O)CC2)CC1)NS(=O)(=O)c1ccc(Nc2ncc(C(F)(F)F)c([C@H]3CC[C@@](C)(O)CC3)n2)c(C)c1 (stereo partly shown)", "conditions": "pH 7.4", "quantity": "logD", "result": "4.9 , 131"}
{"note": "A few entries again:"}
{"Compound": "Cc1ccc(S(=O)(=O)Nc2ccccc2C(=O)Nc2nc(-c3ccccc3)cs2)cc1", "test system": "rat liver microsomes", "conditions": "37 °C, added: NADPH", "quantity": "half-life", "result": "2.5 min"}
{"Compound": "CCCCCCCCNCc1ccc(CNC(=O)c2csc3ncnc(OCc4ccc(N=[N+]=[N-])cc4)c23)cc1", "target or system": "human red blood cells", "conditions": "100 µM", "quantity": "hemolysis", "result": "~6%"}
